Experimental data from different studies.
Compare with care: the assays were run in different laboratories. Several values in a cell are separate wells, animals, samples, runs or records. ± gives the spread as reported.

For CC(C)(C(=O)N1CCOc2c(C#N)cncc2C1)C(F)F, “subjects with adverse event” read 50% (item: Headache; human; oral, 10 mg, CSF pharmacokinetic cohort).
For O=C(Nc1cnccc1Cl)N1CCN(Cc2ccc3c(c2)OC(F)(F)O3)CC1, “hepatic enzyme increased” read 0% (multiple ascending dose; young men; 75 mg, treatment-emergent adverse events).
CNC(=O)c1ccc(-c2cnc3ncc(Cc4ccc5ncccc5c4)n3n2)cc1F: “patients with adverse event” 22% (item: Insomnia, all grades; gastric cancer patients; oral, 600 mg twice daily, expansion cohort, any causality).
CCCn1cc(C)c2c(=O)[nH]c(-c3cc(S(=O)(=O)N4CCN(CC)CC4)ccc3OCC)nc21: “TEAE of CTCAE grade ≥3” 0% (human; concentration not given).
The hepatic clearance of COCCC(=O)Nc1ccc(C2CCCCC2)cc1 is reported as 82 mL/min/kg (hepatocyte stability; cryopreserved mouse hepatocytes; 1 µM).
CN(C(=O)n1cnc(-c2ccc[n+]([O-])c2)c1)[C@H]1CC[C@H](O)CC1 gave a concentration of 9.6 ± 0.4 ng/g (Wistar rat, pons; oral, 10 mg/kg of BIA 10-2474, 24 h, single dose).
For CCOc1c([C@H](C)n2nc(C)c3c(N)ncnc32)cc(Cl)c(F)c1[C@@H]1CNC(=O)C1, the Cmax was 3310 ± 682 nM (patients, monotherapy; oral, 30 mg once daily, cycle 1 day 15).
O=C(c1ccc([C@H]2[C@@H](F)[C@@H](F)C[C@@H](F)[C@H]2F)cc1)N1CC(O)C1 gave a hepatic clearance of 23 mL/min/kg (liver microsome stability; mouse liver microsomes; 1 µM).
For Cc1ccc([C@@H]2O[C@H](CO)[C@@H](O)[C@H](O)[C@H]2O)cc1Cc1ccc(-c2ccc(F)cc2)s1, “urinary sodium excretion change” read -4.79 mEq (Japanese type 2 diabetes patients; 25 mg, day 3, 24 h urine collection; reference: baseline).
Under “incidence of Stomatitis”, NC1(C(=O)N[C@@H](CCO)c2ccc(Cl)cc2)CCN(c2nc[nH]c3nccc2-3)CC1 is recorded as 6.7% (metastatic CRPC patients; dose not given, any grade, treatment-related, all doses, added: enzalutamide 160 mg daily).
C=CC(=O)Nc1cc(Nc2ncc(C(=O)OC(C)C)c(-c3cn(C)c4ccccc34)n2)c(OC)cc1N(C)CCN(C)C gave a tissue/plasma ratio of 1.49 ± 0.71 (male Han Wistar rat, brain; intravenous infusion, 2 µmol/kg/h, 4 h; reference: plasma).
N#Cc1ccc2c(c1)[C@H]1CCCN(C(=O)c3ccc4[nH]cnc4c3)[C@H]1C2 — result for “maximum ACTH level”: 12.6 pmol/L (human; 160 mg, day 15).
The hepatic clearance of O=C(Cc1cccnc1)Nc1ccc([C@H]2[C@@H](F)[C@@H](F)C[C@@H](F)[C@H]2F)cc1 is reported as 16 mL/min/kg (rat liver microsomes; 1 µM).
O=C(O)CSc1nnc(Br)n1-c1ccc(C2CC2)c2ccccc12 gave a body weight of 36.9 g and 41.2 g and 37.9 g and 33.3 g and 32.2 g and 38 g (KM mouse, chronic hyperuricaemia model; dose not given, day 23).
The relative error of C=CC(=O)Nc1cc(Nc2nccc(-c3cn(C4CC4)c4ccccc34)n2)c(OC)cc1N(C)CCN(C)C is reported as 0.2% (autosampler stability; rat plasma; 40 ng/mL, 4 h, 10 °C; reference: nominal concentration).
With N[C@@H](C[18F])C(=O)O the muscle uptake was 0.56 ± 0.36 %ID/cc (PET; athymic nude mouse; intravenous, 90 min).
The AUC(0-tz) of C=CC(=O)NC1CCN(c2ncc3ncnc(Nc4ccc(Oc5ccc6c(c5)ncn6C)c(C)c4)c3n2)CC1 is reported as 47 µM·h (human, male, plasma; oral, 240 mg, fasted, adjusted geometric mean).
The half-life of Cl.[2H]C([2H])([2H])CC(=O)c1cnc(NC(=O)C2CC2)cc1Nc1cccc(-c2ncn(C([2H])([2H])[2H])n2)c1OC is reported as 7.97 h (geometric mean; human; oral, 25 mg single dose, fasted, liquid).
CN1CCN(C(=O)c2ccc(C3CCCCC3)cc2)CC1 gave a hepatic clearance of 12 mL/min/kg (hepatocyte stability; cryopreserved human hepatocytes; 1 µM).
The KFoc of COc1ccnc(C(=O)N[C@H]2COC(=O)[C@H](Cc3ccccc3)[C@@H](O)[C@H](C)OC2=O)c1O is reported as 266 mL/g (soil adsorption; clay loam soil; pH 7.2, organic carbon 4.4 %).
Under “percentage change from baseline”, COc1cc(C(=O)N2CCC3(CC2)CC(=O)c2c(cnn2C(C)C)C3)cc(-c2ccc(C(=O)O)cc2)n1 is recorded as -0.4% (item: total cholesterol; human, fasting serum; 3 mg every 12 h, day 13, adjusted geometric mean; reference: baseline).
The fu of Cc1cc(C)c(CNC(=O)c2cc(Cl)c3c(c2C)O[C@@](C)([C@H]2CC[C@H](N(C)C)CC2)O3)c(=O)[nH]1 is reported as 0.22 (ultracentrifugation; human plasma; 10000 ng/mL, 160 min).
NS(=O)(=O)c1cc(C(=O)O)c(NCc2ccco2)cc1Cl — result for “subjects with adverse event”: 0% (item: nausea; healthy men; oral, 8 days, treatment-emergent, crossover trial).
O=C(NCC1CCOCC1)c1ccc([C@H]2[C@@H](F)[C@@H](F)C[C@@H](F)[C@H]2F)cc1 gave a hepatic clearance of 13 mL/min/kg (liver microsome stability; rat liver microsomes; 1 µM).
C=CCn1c(=O)c2cnc(Nc3ccc(N4CCN(C)CC4)cc3)nc2n1-c1cccc(C(C)(C)O)n1 has an AUC(0-10 h) of 4.28 µM·h (human patients; oral, 125 mg twice daily, monotherapy, -5 day lead-in).
Cc1nc2ccc(F)cc2n1-c1nc(N)c(F)c(Nc2ccc(C(F)(F)F)cc2)n1 gave a dose-normalized Cmax of 5.51 ng/mL/mg (human patients, plasma; oral, 400 mg twice weekly, cycles 1 and 2 pooled).
Cc1ccc(Sc2ccccc2N2CCNCC2)c(C)c1: “participants with TEAE” 0% (item: Headache; healthy adult men; oral, 20 mg daily, 12 days).
The -log Pe of CC(C)C[C@@H]1NC(=O)[C@H](C)N(C)C(=O)[C@H](Cc2ccccc2)NCc2ccc([nH]2)CNC1=O is reported as 5.01 (PAMPA; 2% lecithin in dodecane; 100 µM, 17 h, pH 6.4, 37 °C).
With [18F]c1ccc(-c2ccc3c(c2)[nH]c2ccncc23)cn1 the SUV was 2.07 ± 0.594 (ex vivo biodistribution; B6SJL mouse, normal, stomach; intravenous, 30 min).
C[C@@H](N)C1CCN(S(=O)(=O)c2cccc3cnccc23)CC1 — result for “participants, with TEAEs, treatment-related”: 16.7% (healthy volunteers; 75 mg, fasted).
Cc1ccc(C)c(OCCCC(C)(C)C(=O)O)c1 — result for “trough plasma concentration”: 1980 ng/mL (human, plasma; oral, dose not given, day 12 predose, mean).
C[C@@H]1CN(CC(=O)N2CC(C)(C)c3nc(CO)c(Cc4ccc(F)cc4)cc32)[C@@H](CN2CCOC[C@H]2C)CN1 gave an intrinsic clearance of 180 ± 13 µL/min/mg (cynomolgus liver microsomes; 1 µM).
N#Cc1ccc2c(c1)[C@H]1CCCN(C(=O)c3ccc4[nH]cnc4c3)[C@H]1C2 — result for “Vz/F at steady state”: 847 L (human, plasma; oral, 240 mg once daily).
CC(C)(c1ccc(O)cc1)c1ccc(O)cc1 — result for “milk fat partition ratio”: 13.9 (cow whole milk; 200 nM; reference: milk fat over skim milk).
CCN1/C(=C/C(C)=O)Sc2ccc(F)cc21: “PR interval change” 102 ± 2% (cynomolgus monkey; oral, 100 mg/kg, 2 h post-dose; reference: pre-dose).
With CN(CCC#N)C(=O)c1ccc(C2CCCCC2)cc1 the hepatic clearance was 52 mL/min/kg (liver microsome stability; rat liver microsomes; 1 µM).
The lanthanide concentration of CC(C(=O)NCC(=O)NCC(CNC(=O)CNC(=O)C(C)N1CCN(CC(=O)[O-])CCN(CC(=O)[O-])CCN(CC(=O)[O-])CC1)(CNC(=O)CNC(=O)C(C)N1CCN(CC(=O)[O-])CCN(CC(=O)[O-])CCN(CC(=O)[O-])CC1)CNC(=O)CNC(=O)C(C)N1CCN(CC(=O)[O-])CCN(CC(=O)[O-])CCN(CC(=O)[O-])CC1)N1CCN(CC(=O)[O-])CCN(CC(=O)[O-])CCN(CC(=O)[O-])CC1.[Gd+3].[Gd+3].[Gd+3].[Gd+3] (stereo not drawn) is reported as 0.023 ± 0.011 nmol/g (cynomolgus monkey, cerebrum; dose not given, day 5).
The concentration of CCc1c(-c2ccccc2)c(-c2ccccc2)nn1-c1ccccc1-c1cccc(OCC(=O)O)c1 is reported as 292 ng/mL (female Sprague-Dawley rat, ovary homogenate; oral, 10 mg/kg, 1 h).
Under “pulmonary embolism incidence”, CNCc1ccc(-c2[nH]c3cc(F)cc4c3c2CCNC4=O)cc1 is recorded as 0% (human patients; oral, 360 mg twice daily, all grades).
The clearance of C=C1CN2CCC[C@@]2(COc2nc3c4c(c(Cl)c(-c5nc(N)cc(C)c5C(F)(F)F)c(F)c4n2)OC[C@@H]2CN(C(=O)/C=C/c4nccc5c4CNCC5)CCN32)C1 is reported as 2.9 mL/min/kg (female CD-1 mouse, whole blood; intravenous, 1 mg/kg, DMSO 10%, PEG400 35%, water 55%).
For Cc1c(-c2ccc(N3CCc4cccc(C(=O)Nc5nc6ccccc6s5)c4C3)nc2C(=O)O)cnn1CC12CC3(C)CC(C)(C1)CC(OCCNCC[C@H](O)CO)(C3)C2, the plasma concentration was 29 ng/mL (anaesthetized male beagle dog; iv infusion, 0.01 mg/kg/min, 5 min).
For O=c1oc2c(O)c(O)cc3c(=O)oc4c(O)c(O)cc1c4c23, serum concentration read “not detected” (LC-MS/MS; male Ross 308 broilers, serum; oral, dose not given).
For CN1C(=O)[C@@H](NC(=O)c2nnc(Cc3ccccc3)[nH]2)COc2cccnc21, the Vz/F was 57.1 L (healthy human, fasted, plasma; oral, 200 mg single dose, geometric mean).
The AUC(0-8h) of Cc1cn(C(=O)c2c(-c3c(Cl)cc(Cl)cc3Cl)noc2C(C)(C)F)c2cccc(/C=C/C(=O)O)c12 is reported as 56800 ng·h/mL (human patients; 250 mg bid, cycle 1 day 1).
Cc1cc2sc(N)nc2c2cccnc12 has an MRT(0-inf) of 4.89 h (female BALB/c mice, plasma; intraperitoneal, 30 mg/kg).
Under “diastolic blood pressure”, COc1ccc2c(c1)CN(C(=O)CCN1CCC(Cc3ccccc3)CC1)CC[S@@+]2[O-] is recorded as 80 ± 11 mmHg (telemetry; conscious dog; intravenous, 2 mg/kg, 24 h).
With COCCN(C)C(=O)c1ccc([C@H]2[C@@H](F)[C@@H](F)C[C@@H](F)[C@H]2F)cc1 the hepatic clearance was 19 mL/min/kg (liver microsome stability; dog liver microsomes; 1 µM).
COc1ccnc(C(N)=O)c1O has a KFoc of 1780 mL/g (soil adsorption; soil; pH 6.9, organic carbon 0.8 %).
With O=c1ccc2ccc(O)cc2o1 the intrinsic clearance was 691 µL/min/mg protein (dog liver microsomes).
For CCCCCCOC(=O)NC(=N)c1ccc(NCc2nc3cc(C(=O)N(CCC(=O)OCC)c4ccccn4)ccc3n2C)cc1, “participants with adverse event” read 4.2% (item: Myalgia; human; oral, 75 mg, alone).
For O=C(NCc1cc[nH]n1)c1ccc(C2CCCCC2)cc1, the hepatic clearance was 27 mL/min/kg (liver microsome stability; dog liver microsomes; 1 µM).
The plasma concentration of COc1cccc(-c2n[nH]c(SCc3ccccn3)n2)c1OC is reported as 3250 ng/mL (Sprague-Dawley rats, both sexes; oral dietary, 100 mg/kg/day, day 90, 24 h).
Under “treatment-emergent adverse events”, O=C(Nc1nc2cccc(-c3ccc(CN4CCS(=O)(=O)CC4)cc3)n2n1)C1CC1 is recorded as 0% (item: dysgeusia; human rheumatoid arthritis patients; oral, 30 mg once daily, 4 weeks, regardless of relatedness).
O=c1ccc2c(OCCCCOc3ccccc3)c3ccoc3cc2o1: “trough plasma concentration” 310 ± 90 nM (HPLC-MS; Lewis rats, plasma; oral gavage, 50 mg/kg daily, day 28, 24 h).
Under “time to peak seizure response”, C[C@@H](NC(=O)c1ccc(C#Cc2cccc(F)c2)cn1)C(C)(C)O is recorded as ~1 h (modified Racine score; Sprague Dawley rat; intraperitoneal, 0.1 to 10 mg/kg).
Under “unbound plasma concentration”, CCn1ncc2c1-c1cnc(N)c(c1)O[C@H](C)c1cc(F)ccc1-c1nn(C)nc1C2 is recorded as 67 ± 8 nM (female Balb/c nude mouse; 3 mg/kg twice daily, 6 h (tau/2), steady state).
For COc1ccc2c(=O)n(C)c(-c3ccccc3)nc2c1, the tissue concentration was 215000 ng/g (male Sprague-Dawley rat, small intestine; oral, 30 mg/kg, 0.25 h).

Some of these lines once more:
CC(C)(c1ccc(O)cc1)c1ccc(O)cc1 — result for “milk fat partition ratio”: 13.9 (cow whole milk; 200 nM; reference: milk fat over skim milk).
CCN1/C(=C/C(C)=O)Sc2ccc(F)cc21: “PR interval change” 102 ± 2% (cynomolgus monkey; oral, 100 mg/kg, 2 h post-dose; reference: pre-dose).
With CN(CCC#N)C(=O)c1ccc(C2CCCCC2)cc1 the hepatic clearance was 52 mL/min/kg (liver microsome stability; rat liver microsomes; 1 µM).
The lanthanide concentration of CC(C(=O)NCC(=O)NCC(CNC(=O)CNC(=O)C(C)N1CCN(CC(=O)[O-])CCN(CC(=O)[O-])CCN(CC(=O)[O-])CC1)(CNC(=O)CNC(=O)C(C)N1CCN(CC(=O)[O-])CCN(CC(=O)[O-])CCN(CC(=O)[O-])CC1)CNC(=O)CNC(=O)C(C)N1CCN(CC(=O)[O-])CCN(CC(=O)[O-])CCN(CC(=O)[O-])CC1)N1CCN(CC(=O)[O-])CCN(CC(=O)[O-])CCN(CC(=O)[O-])CC1.[Gd+3].[Gd+3].[Gd+3].[Gd+3] (stereo not drawn) is reported as 0.023 ± 0.011 nmol/g (cynomolgus monkey, cerebrum; dose not given, day 5).
The concentration of CCc1c(-c2ccccc2)c(-c2ccccc2)nn1-c1ccccc1-c1cccc(OCC(=O)O)c1 is reported as 292 ng/mL (female Sprague-Dawley rat, ovary homogenate; oral, 10 mg/kg, 1 h).
Under “pulmonary embolism incidence”, CNCc1ccc(-c2[nH]c3cc(F)cc4c3c2CCNC4=O)cc1 is recorded as 0% (human patients; oral, 360 mg twice daily, all grades).
